{"data": "Measurements collected from several papers", "rnhA": "Ribonuclease HI (rnhA, Escherichia coli, UniProt P0A7Y4)", "note": "Each line is one published result; not all experiments were run side by side. Numbers after ± are the reported error."}
{"SMILES": "O=C(Nc1ccccc1Nc1ccccc1)c1cccnc1F", "target": "Succinate dehydrogenase complex (Sus scrofa, UniProt A5GZW8+D0VWV4+Q007T0+Q0QF01)", "assay": "enzyme activity, inhibitor, double-antibody sandwich ELISA", "IC50 [µM]": "> 100"}
{"SMILES": "CC(C)Sc1ccc(SC(C)C)c(O)c(=O)c1O", "target": "rnhA", "assay": "enzyme activity, inhibitor", "IC50 [µM]": 3.5}
{"SMILES": "N[C@@H](Cc1c[nH]c2cc(OCc3ccccc3)ccc12)C(=O)O", "target": "SLC7A5 (Homo sapiens, UniProt Q01650)", "assay": "transporter uptake, inhibitor, radiometric", "IC50 [µM]": "> 100"}
{"SMILES": "CC(C)(C)NCCCNC(=O)c1ccnc(C(F)(F)F)c1", "target": "Lethal(3)malignant brain tumor-like protein 1 (Homo sapiens, UniProt Q9Y468)", "assay": "methyl-lysine reader binding, inhibitor, AlphaScreen", "IC50 [µM]": "> 100"}
{"SMILES": "CCC(=O)N(C)c1ccc(Cl)c(Cl)c1", "target": "Cytochrome P450 2C8 (CYP2C8, Homo sapiens, UniProt P10632)", "assay": "enzyme activity, inhibitor", "system": "human, liver microsomes", "conditions": "10 min", "IC50 [µM]": "> 25"}
{"SMILES": "Cc1cc(C)c(S(=O)(=O)Nc2ccc3c(c2)ncn3Cc2ccccc2)c(C)c1", "target": "NR1I2 (Homo sapiens, UniProt O75469)", "IC50 [µM]": 0.026}
{"SMILES": "CC(=O)N[C@@H]1[C@@H](O)[C@H](O)[C@@H](CO)O[C@@H]1CP(=O)(O)OP(=O)(O)OC[C@H]1O[C@@H](n2ccc(=O)[nH]c2=O)[C@H](O)[C@@H]1O", "target": "OGT (Homo sapiens, UniProt O15294)", "assay": "enzyme activity, inhibitor, radiometric", "IC50 [µM]": 41}
{"SMILES": "C=C(C)C1CCc2c(c(C)cc(O)c(=O)c2O)C1 (centres unmarked)", "target": "rnhA", "assay": "RNase H activity, inhibitor", "IC50 [µM]": 40}
{"SMILES": "C=C(NC(=O)C(=C)NC(=O)c1csc(C2=NC3c4csc(n4)C4NC(=O)c5csc(n5)C(C(C)(O)C(C)O)NC(=O)C5CSC(=N5)C(=CC)NC(=O)C(C(C)O)NC(=O)c5csc(n5)C3(CC2)NC(=O)C(Cc2ccccc2)NC(=O)C(=C)NC(=O)C(C)NC(=O)C(C(C)CC)NC2C=Cc3c(C(C)O)cc(nc3C2O)C(=O)OC4C)n1)C(N)=O (centres unmarked)", "target": "PSMB5 (Homo sapiens, UniProt P28074)", "assay": "chymotrypsin-like activity, inhibitor", "system": "purified 20S proteasome", "conditions": "15 min preincubation, 37 °C, with: Suc-Leu-Leu-Val-Tyr-AMC substrate", "IC50 [µM]": "0.37 ± 0.09"}
{"SMILES": "O=C(COCCCc1ccccc1)N[C@@H](Cc1cn(CCNC(=O)c2ccc(S[C@@H]3O[C@H](CO)[C@H](O)[C@H](O)[C@H]3O)cc2)nn1)C(=O)NCCO", "target": "lecA (Pseudomonas aeruginosa, UniProt Q05097)", "assay": "ligand displacement, FP", "IC50 [µM]": 41.7}
{"SMILES": "C[C@]12CC[C@@H]3c4ccc(OCc5ccccc5)cc4CC[C@H]3[C@@H]1[C@H](OCCCC(=O)O)CC2=O", "target": "HSD17B1 (Homo sapiens, UniProt P14061)", "assay": "enzyme activity, inhibitor, radiometric", "IC50 [µM]": 3.5}
{"SMILES": "Cc1ccc(CNC(=O)C(CCc2ccccc2)NC(=O)C(NC(=O)Cc2cccc(Oc3ccccc3)c2)C(C)O)cc1 (centres unmarked)", "target": "Proteasome component C5/PSMB8 (Homo sapiens, UniProt P20618+P28062)", "assay": "inhibitor", "IC50 [µM]": 0.041}
{"SMILES": "Cc1cc(NC2CCN(C)CC2)ccc1-c1cc2c(N3CCC[C@H](C(=O)NCc4ccc(OC(F)(F)F)cc4)C3)ncnc2[nH]1", "target": "LTK (Homo sapiens, UniProt P29376)", "assay": "enzyme activity, inhibitor, mobility shift", "IC50 [µM]": 0.00042}
{"SMILES": "CC(C)[C@@H]1NC(=O)[C@@H](NC(=O)[C@@H](N)Cc2c[nH]c3ccccc23)CSSC[C@@H](C(=O)N[C@@H](Cc2c[nH]c3ccccc23)C(N)=O)NC(=O)[C@H](CCCNC(=N)N)NC(=O)[C@H](CC(N)=O)NC(=O)[C@H]([C@@H](C)O)NC(=O)CNC(=O)[C@H](Cc2c[nH]c3ccccc23)NC(=O)[C@H](CC(=O)O)NC(=O)[C@H](CCC(N)=O)NC(=O)[C@H](Cc2c[nH]c3ccccc23)NC1=O", "target": "Complement C3 (Homo sapiens, UniProt P01024)", "assay": "C3b formation, ELISA", "system": "normal human serum", "conditions": "with: LPS-coated plate", "IC50 [µM]": 0.94}
